Measured values collected from several papers.
A part holds a random share of what one study measured.

Series 1 — method: RNA Bind-n-Seq; form: RNA; matrix: in vitro; concentration: 365 nM; relative to: no-protein control; reading: higher = stronger binding
Target: RNA binding protein fox-1 homolog 2, RRM domain, GST-SBP tag (RBFOX2, Homo sapiens, UniProt O43251-10, residues 100-194)
Setting: natural RNA segment, single round, ends assumed
All sequences stand within: GGGAGUUCUACAGUCCGACGAUC … UGGAAUUCUCGGGUGCCAA
Construct (chain): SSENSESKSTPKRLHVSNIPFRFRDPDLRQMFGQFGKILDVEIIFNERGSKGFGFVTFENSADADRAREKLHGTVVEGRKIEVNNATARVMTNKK
Sequence	RBNS enrichment (R)
AUCCGAGCUGGACUCCUCCUGUAGGGUGGACAGACUGUAUAUUGAUAAUUCCUUCUAUGCGCAGUUUAGACAUCUCUGUUGGGCUUUUUUUUUAAAUUUUUAUUUUAAAA	0.512
CAGAUGGAUUAUUUGUCGACCAAAAUGAUGCCAAUUUGUAAAUUAAAAUGUCACCUAGUGGCCCUUUUUCUUAUGUGUUUUUUGUAUAAGAAAUUUUCUGUGAAAUAUUC	0.497
GAAACAUUCUGUCCACAAAGACUAUUUUAAGGCAUAUUCAACUGGUAUUUCAUUUAUUCUUAUGGACAAAGCAAUGCAGCAUCAGGAGAUCAUUGGUGACAUUCUUCAGU	0.643
AAACUAGAUAAAUGACCUCAUUUUCUUGAGCUUGAAUUCAUUUUUAAUUUUAAUUUUAUUUUAUACAACGUGUAGACGGUUCCCUGUUCUCUGCAUUUAGAAGUAUACAC	1.31
AAAUUGAGUCUGAAAGCCACAAGGACAGUCAACUCACAGCCAGCUCACAUUGCAGACACCAUUUUGGGCUCCCUGAUUAAAUGCAGAUCAGUUCUGCACACCUCCAGGGG	0.283
CCUGGCACACCCUAGUAGCCGGGUCUGGCCAGGCAGCGCCGCAUGGCUCUGAACAGCAACUCUGUCCCCCUCUGAGGUGAAACGGGAAACACACUGUACAUGUUGUGAAC	0.668
UUAUUGUACUUCCAUUCAUACUCUGGGCACUUGUGUUGUAUUGUUCUGUUACAUACUUUUUUUAACCUGUUUUGUUUUAUCAUAUAUGCAUUAAAAGUAUUAUCUUUAUC	1.03
AAUUUAUUUUAUUAAAAUAACAUAAGGAACCAACUGUAUUGGCUCAAUAAAAACAAAAUUAAAACCCAAAAUCAUUAAGAAAACCUGUAUUCCUGGCUUUCUUACAGACA	0.421
ACGGCACCUUCUUGAAAAGGAAGCAUUUGAACUUGUUCCUCCCUAUAGUUCUAUUGCCUUAUAUGCAAAAUUGUACCCUGUUGCUCAGAGAAAUUAUUCAUAAGAGAAAA	0.42
GAUUGCAGUAGCCCAUUGGUUGUUCAUAUAUUUAAAUAAAAUGGUCUACAAACUAUUUUUCAAACAAUAAGGACUAUCUUGGGAUAUCUGAGCUGCUUGGGGAGGGUGUG	0.523
GACUUUGAACACCCGAGGGGCUGUGCCCCAGCUCCCCACUCCCCCAGGGGCAAUGGCCCCAACCUCCCUUUCAGACUCCAUGAGCCCAGCCCCUAUGUGCCUAGAUGGUU	0.906
GAAGAAAUGGUGGUAAACUUUCUCUACCUAGAAGUAGUGGAAAUUUCAAGGUCAUCUUAAAAAAGAUGUGCGUUGUAUAUUUUAACUACAUUCUCUACACUCUAACAUUA	0.265

Series 2 — method: RNA Bind-n-Seq; form: RNA; matrix: in vitro; concentration: not given; relative to: input RNA pool; reading: higher = stronger binding
Target: RING finger protein unkempt homolog, zinc fingers 1-6, GST-SBP tag (UNK, Homo sapiens, UniProt Q9C0B0, residues 30-357)
Setting: RNA with constant flanks, human-mouse chimeric sites, ends assumed
All sequences stand within: GGGAGUUCUACAGUCCGACGAUC … CAACAGAGGAUUGAGCAUCA
Target sequence (chain): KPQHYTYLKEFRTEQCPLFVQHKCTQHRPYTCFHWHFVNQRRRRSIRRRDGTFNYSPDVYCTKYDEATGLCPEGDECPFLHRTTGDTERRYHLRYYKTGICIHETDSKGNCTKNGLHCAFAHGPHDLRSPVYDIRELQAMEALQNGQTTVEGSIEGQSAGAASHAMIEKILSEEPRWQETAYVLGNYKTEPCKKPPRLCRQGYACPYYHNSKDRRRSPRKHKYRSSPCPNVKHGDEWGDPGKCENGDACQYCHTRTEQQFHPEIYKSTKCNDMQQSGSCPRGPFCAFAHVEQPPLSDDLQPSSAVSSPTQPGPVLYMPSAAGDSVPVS
Sequence	bound/input enrichment
AGAUUCCCUCUCUUAAAACCUCCUCCGAAGUUGGAGUCUCUUACAGAUGCCUCAUCCCCUGUUAGCGUUUUAGUUUGGACCACCCAGCCUUGGACAAUUCCAGCCAACCAGGCAAUUUGC	1.93 ratio
GACAGUGAAGGCCCACUGUGUGAAUUGCUUUUUUUCUUCCUGACUGCAAUCUUCCAGGCGAUGGCUGAAGAAGAGGAGGAAGUAGCCAAAGAGCAACUAACUGAUGCUGACACCAAAGAU	0.0694 ratio
GGACAUCUUGUCAGGAUUUAUGUUCCUGUGAAACAAGUGAACACUCUGAUACACUUCAUCUGCUUGUACAUCUGUAUUUGUAUAAUAUGUAAAUAUGUUAAUCCAAGCAAUGUGUCACUU	0.0903 ratio
UCAUUUUGCUCGGGUUAUUCUUUCCUUUAGGAAAAGCAGAUUAGACUGGUUGUAAGAAAAACAGAAGCCAUGUUUCGAAGACCUGUGUUACAGGUAUUUCGUCAGUUUGUAAGACAUGAG	1.18 ratio
UCUUUAAAAAAAAAAUUACCUUUUCUGCAUAUUAUAGAUGGAGUAAAGAUCCACGUUCAAGCUCAAAGAGCAAAGGCUUUGCACGGAGCUCAAACAUCUGAUGAAGAAAGAUUUCUGAGA	0.234 ratio
AUUGUUGAAGCGAAUCCACUUUUAGAAGCAUUUGGAAAUGCAAAGACUGUUCGCAACAAUAAUAGCAGUCGAUUUGGAAAAUUUGUAGAAAUACAUUUCAAUGAAAAGAGUUCGGUUGUU	0.248 ratio
CCAAUUGUGGAGCAGUACUUGAAGACAAAGAAAAAUUCUAAUAAUUUAAUCAUGAAAUACAUUAGCUGCCGCCUGCUGACAUUUGUGAUUAUACUGUUAGCGUGUAUCUACCUGGGCUAU	0.4 ratio
UCUUUAAAAAAAAAAUUACAGGAAAAUACAGUGCUUUCCCUCCCAUAGAUCCACGUUCAAGCUCAAAGAGCAAAGGCUUUGCACGGAUCUGAUGAUGCUGAUGAAGAAAGAUUUCUGAGA	0.52 ratio
CAGCCUCAGAGCCCAGACUUCCUGGAUAUUACCAACCCCAAAGCCGUAUUAGAAAAUGCAUUGAGAAACUUCGCCUGUCUGACCACCGGAGAUGUGAUUGCUAUCAACUACAAUGAGAAG	0.547 ratio
UCAGUCUAGCUUUUAAUCUUUGUAAAUUCUUAACAUUUUUAUAUUGCCAUGUUUAUUUUGUUUGGGUAAUUUGGUUCAUUAAGUACAUAGCUAAGGUAAUGAACAUCUUUUUCAGUAAUU	11.6 ratio
CGCGUCCUCUCGCUGCUGCGGAGCCCGCCCAGCUGGGCAUUCCGGGACUGGUACCCUGCACACAGCCGCCUCUUCGAUCAAGCUUUCGGGGUGCCCCGGUUGCCCGAUGAGUGGUCGCAG	0.095 ratio

Series 3 — method: protein-binding microarray; form: double-stranded DNA, one strand shown; matrix: in vitro; concentration: 2200 nM top; setting: 60-bp whole probe; added: salmon DNA 0.4 mg/ml; relative to: random background probes; reading: higher = stronger binding; all sequences stand within: GCCTAGCAC … GTCTTGATTCGCTTGACGCTGCTG
Target: Interferon regulatory factor 7, full length, phosphomimetic (IRF7, Homo sapiens, UniProt Q92985, residues 1-503, S471D/S472D/S475D/S476D/S477D/S483D/S484D/S487D)
UniProt Q92985, sequence (whole entry, unmodified, looked up): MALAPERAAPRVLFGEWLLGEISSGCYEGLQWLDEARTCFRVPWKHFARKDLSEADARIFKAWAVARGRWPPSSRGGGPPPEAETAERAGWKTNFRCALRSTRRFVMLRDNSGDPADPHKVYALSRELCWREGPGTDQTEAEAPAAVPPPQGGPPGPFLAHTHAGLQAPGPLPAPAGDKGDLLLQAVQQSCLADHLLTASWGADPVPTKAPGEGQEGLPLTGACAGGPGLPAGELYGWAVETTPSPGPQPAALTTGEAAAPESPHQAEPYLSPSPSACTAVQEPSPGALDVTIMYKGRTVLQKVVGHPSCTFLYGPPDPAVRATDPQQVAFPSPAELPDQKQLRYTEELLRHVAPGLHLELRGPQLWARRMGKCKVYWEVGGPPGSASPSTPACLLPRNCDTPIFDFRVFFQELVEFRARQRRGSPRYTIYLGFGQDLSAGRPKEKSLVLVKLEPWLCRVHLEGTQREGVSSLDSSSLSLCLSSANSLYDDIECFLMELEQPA
Sequence	fitted relative affinity [z-score]
GCCGATATCGGGTTTCGAGACGTGCTA	1.76
GACGGTCTTGGTTTCGGGACGTGCTAG	2.82
ACCTATGTGTACCACTAGACGTGCTAG	0.877
GACGGCCTCGGTCTCGGGACGTGCTAG	-0.732
GACAGACTGGACTTTCGGGACGTGCTA	2.48
GACGAACTGCTTCTCCTGACGTGCTAG	0.694
TTAGGTATCGGTTGCGGTTAGTGCTAG	1.19
TCAAGTTTCTCCTTTCCACTGTGCTAG	3.5
GACGGTTTCGGACGGGGGACGTGCTAG	2.64
AGCACTCCAGAGGCAGAGGCGTGCTAG	-0.752
TTAGGACTGGACTATCGGTTGGTGCTA	-0.165
TCATTTTTGTTGTTTTTACTGTGCTAG	2.3
TTAGAACTGAGTCTCAATTAGTGCTAG	-0.626
TCAATCTTCAAGACTCATACTGTGCTA	0.289
TTAGGTATCGGTATCGGTGAGTGCTAG	0.634
GACGGTTTCGGGTATCGGGACGTGCTA	6.07
CTTTACATGAGTTTAGAGCCGTGCTAG	0.408
GAGGATTTCAGTCTCGAGACGTGCTAG	0.432
TTGGATATCGGGTATCGATTAGTGCTA	0.219
GACGGTTTCGTCACTGGGGACGTGCTA	2.01
CTTATTCTCTACTTGTGTCTGTGCTAG	2.24
TTAGGTTTCCTTCTCCTATAGTGCTAG	2.76
ATAGAACTGGGGTTTCGATTAGTGCTA	2.69
ATATGTGTATATATAATATAGTGCTAG	0.483
TTAGATTACAGACTGGATTAGTGCTAG	-0.169

Series 4 — method: protein binding microarray; form: double-stranded DNA, one strand shown; matrix: in vitro; concentration: not given; relative to: not given; reading: higher = stronger binding
Target: Histone acetyltransferase KAT6A, winged helix 2, GST fusion (KAT6A, Homo sapiens, UniProt Q92794, residues 85-181)
Setting: 8-mer, flanks averaged, mean of 2 arrays, mostly near background
Construct (chain): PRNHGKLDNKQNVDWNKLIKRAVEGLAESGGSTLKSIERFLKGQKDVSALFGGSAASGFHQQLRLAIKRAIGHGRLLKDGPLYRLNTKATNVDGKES
Sequence	E-score
CACTCGCG	0.175
AGCTGAGG	-0.0657
GTCGGCGA	0.196
AGTCCCGG	-0.0767
AACTAGGA	-0.0805
CCCGTCCA	-0.00016
AGATCTAA	-0.0243
GACCCCGA	0.0667
AGGTAGTG	-0.199
AAGGTGTC	-0.0248
AGATTAAA	0.272
GGATTCGA	0.025
AAAATATC	0.167
GTGTGGGA	0.0646
AGACCCAA	0.0988
CCCCGTCG	-0.013
GGACCCCC	0.0484
GAGGGCAC	-0.107
AGCTCGAA	0.0227
CGTCATCA	-0.161
GTGTTCTA	-0.00321
AGTCCTCG	-0.18
ACGTCGTG	-0.0627
GACGACCA	-0.2
CGGAGAGA	0.15

Excerpt of the above (series 2):
Sequence	bound/input enrichment
CGCGUCCUCUCGCUGCUGCGGAGCCCGCCCAGCUGGGCAUUCCGGGACUGGUACCCUGCACACAGCCGCCUCUUCGAUCAAGCUUUCGGGGUGCCCCGGUUGCCCGAUGAGUGGUCGCAG	0.095 ratio
CCAAUUGUGGAGCAGUACUUGAAGACAAAGAAAAAUUCUAAUAAUUUAAUCAUGAAAUACAUUAGCUGCCGCCUGCUGACAUUUGUGAUUAUACUGUUAGCGUGUAUCUACCUGGGCUAU	0.4 ratio
UCAGUCUAGCUUUUAAUCUUUGUAAAUUCUUAACAUUUUUAUAUUGCCAUGUUUAUUUUGUUUGGGUAAUUUGGUUCAUUAAGUACAUAGCUAAGGUAAUGAACAUCUUUUUCAGUAAUU	11.6 ratio
CAGCCUCAGAGCCCAGACUUCCUGGAUAUUACCAACCCCAAAGCCGUAUUAGAAAAUGCAUUGAGAAACUUCGCCUGUCUGACCACCGGAGAUGUGAUUGCUAUCAACUACAAUGAGAAG	0.547 ratio
AGAUUCCCUCUCUUAAAACCUCCUCCGAAGUUGGAGUCUCUUACAGAUGCCUCAUCCCCUGUUAGCGUUUUAGUUUGGACCACCCAGCCUUGGACAAUUCCAGCCAACCAGGCAAUUUGC	1.93 ratio
UCUUUAAAAAAAAAAUUACAGGAAAAUACAGUGCUUUCCCUCCCAUAGAUCCACGUUCAAGCUCAAAGAGCAAAGGCUUUGCACGGAUCUGAUGAUGCUGAUGAAGAAAGAUUUCUGAGA	0.52 ratio
